# Measurements collected from several papers.
# Numbered parts are unrelated; each lists some results of a single study.
# UniProt Q8IWQ3, sequence (whole entry, looked up): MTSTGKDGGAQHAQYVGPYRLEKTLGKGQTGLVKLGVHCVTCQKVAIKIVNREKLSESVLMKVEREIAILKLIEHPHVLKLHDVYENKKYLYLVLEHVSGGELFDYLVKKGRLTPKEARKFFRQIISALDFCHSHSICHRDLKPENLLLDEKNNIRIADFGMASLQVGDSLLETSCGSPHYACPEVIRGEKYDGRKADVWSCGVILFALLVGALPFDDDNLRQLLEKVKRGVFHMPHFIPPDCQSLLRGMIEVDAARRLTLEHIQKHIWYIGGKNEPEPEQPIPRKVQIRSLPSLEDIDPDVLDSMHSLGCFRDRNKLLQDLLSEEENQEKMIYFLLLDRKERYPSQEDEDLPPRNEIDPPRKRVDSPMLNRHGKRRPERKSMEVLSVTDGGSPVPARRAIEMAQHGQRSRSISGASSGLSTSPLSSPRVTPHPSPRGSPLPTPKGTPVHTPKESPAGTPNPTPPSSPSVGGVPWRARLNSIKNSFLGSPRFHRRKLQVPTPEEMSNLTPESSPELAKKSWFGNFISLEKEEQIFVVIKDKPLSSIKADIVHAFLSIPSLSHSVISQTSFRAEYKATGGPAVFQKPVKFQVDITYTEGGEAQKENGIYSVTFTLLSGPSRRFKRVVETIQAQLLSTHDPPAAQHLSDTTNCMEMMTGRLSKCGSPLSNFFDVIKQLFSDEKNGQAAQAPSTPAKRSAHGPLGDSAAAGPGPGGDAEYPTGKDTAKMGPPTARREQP
# UniProt Q8TD08, sequence (whole entry, looked up): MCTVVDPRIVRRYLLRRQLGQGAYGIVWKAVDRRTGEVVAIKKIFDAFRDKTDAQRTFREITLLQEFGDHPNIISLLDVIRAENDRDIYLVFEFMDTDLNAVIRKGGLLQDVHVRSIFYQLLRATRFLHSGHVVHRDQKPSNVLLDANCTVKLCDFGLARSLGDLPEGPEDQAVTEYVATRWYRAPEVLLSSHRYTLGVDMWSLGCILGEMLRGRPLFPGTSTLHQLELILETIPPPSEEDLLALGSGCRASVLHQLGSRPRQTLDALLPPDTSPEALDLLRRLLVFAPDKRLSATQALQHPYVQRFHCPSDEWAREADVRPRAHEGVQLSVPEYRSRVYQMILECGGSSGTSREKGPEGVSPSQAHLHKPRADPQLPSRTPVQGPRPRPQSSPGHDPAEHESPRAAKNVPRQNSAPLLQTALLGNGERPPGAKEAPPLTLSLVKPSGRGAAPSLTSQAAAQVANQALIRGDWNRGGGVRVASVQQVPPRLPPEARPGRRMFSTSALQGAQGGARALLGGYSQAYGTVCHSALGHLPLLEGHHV
# UniProt Q92918, sequence (whole entry, looked up): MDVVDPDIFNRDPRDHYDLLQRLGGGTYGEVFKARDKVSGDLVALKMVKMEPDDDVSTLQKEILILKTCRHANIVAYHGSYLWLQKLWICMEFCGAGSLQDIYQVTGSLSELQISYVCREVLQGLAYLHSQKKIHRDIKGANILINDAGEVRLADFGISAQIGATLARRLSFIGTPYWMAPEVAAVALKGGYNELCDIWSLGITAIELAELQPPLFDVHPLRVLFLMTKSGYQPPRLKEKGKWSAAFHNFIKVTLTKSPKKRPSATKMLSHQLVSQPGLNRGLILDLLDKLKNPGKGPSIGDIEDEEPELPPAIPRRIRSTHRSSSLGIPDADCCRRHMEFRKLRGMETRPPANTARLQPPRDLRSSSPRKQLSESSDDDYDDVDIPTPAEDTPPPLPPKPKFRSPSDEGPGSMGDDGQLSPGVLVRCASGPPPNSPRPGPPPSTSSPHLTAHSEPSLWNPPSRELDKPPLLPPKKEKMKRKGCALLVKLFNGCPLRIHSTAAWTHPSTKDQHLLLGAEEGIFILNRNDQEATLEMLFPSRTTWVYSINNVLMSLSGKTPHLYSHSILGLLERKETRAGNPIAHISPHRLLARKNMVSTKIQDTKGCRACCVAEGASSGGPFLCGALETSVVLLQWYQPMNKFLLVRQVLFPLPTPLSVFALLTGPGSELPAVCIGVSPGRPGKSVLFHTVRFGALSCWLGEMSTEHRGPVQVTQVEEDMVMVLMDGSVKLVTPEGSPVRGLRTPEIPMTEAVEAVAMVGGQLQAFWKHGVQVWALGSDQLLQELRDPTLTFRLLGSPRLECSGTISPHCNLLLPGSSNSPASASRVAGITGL
# UniProt P00519, sequence (whole entry, unmodified, looked up): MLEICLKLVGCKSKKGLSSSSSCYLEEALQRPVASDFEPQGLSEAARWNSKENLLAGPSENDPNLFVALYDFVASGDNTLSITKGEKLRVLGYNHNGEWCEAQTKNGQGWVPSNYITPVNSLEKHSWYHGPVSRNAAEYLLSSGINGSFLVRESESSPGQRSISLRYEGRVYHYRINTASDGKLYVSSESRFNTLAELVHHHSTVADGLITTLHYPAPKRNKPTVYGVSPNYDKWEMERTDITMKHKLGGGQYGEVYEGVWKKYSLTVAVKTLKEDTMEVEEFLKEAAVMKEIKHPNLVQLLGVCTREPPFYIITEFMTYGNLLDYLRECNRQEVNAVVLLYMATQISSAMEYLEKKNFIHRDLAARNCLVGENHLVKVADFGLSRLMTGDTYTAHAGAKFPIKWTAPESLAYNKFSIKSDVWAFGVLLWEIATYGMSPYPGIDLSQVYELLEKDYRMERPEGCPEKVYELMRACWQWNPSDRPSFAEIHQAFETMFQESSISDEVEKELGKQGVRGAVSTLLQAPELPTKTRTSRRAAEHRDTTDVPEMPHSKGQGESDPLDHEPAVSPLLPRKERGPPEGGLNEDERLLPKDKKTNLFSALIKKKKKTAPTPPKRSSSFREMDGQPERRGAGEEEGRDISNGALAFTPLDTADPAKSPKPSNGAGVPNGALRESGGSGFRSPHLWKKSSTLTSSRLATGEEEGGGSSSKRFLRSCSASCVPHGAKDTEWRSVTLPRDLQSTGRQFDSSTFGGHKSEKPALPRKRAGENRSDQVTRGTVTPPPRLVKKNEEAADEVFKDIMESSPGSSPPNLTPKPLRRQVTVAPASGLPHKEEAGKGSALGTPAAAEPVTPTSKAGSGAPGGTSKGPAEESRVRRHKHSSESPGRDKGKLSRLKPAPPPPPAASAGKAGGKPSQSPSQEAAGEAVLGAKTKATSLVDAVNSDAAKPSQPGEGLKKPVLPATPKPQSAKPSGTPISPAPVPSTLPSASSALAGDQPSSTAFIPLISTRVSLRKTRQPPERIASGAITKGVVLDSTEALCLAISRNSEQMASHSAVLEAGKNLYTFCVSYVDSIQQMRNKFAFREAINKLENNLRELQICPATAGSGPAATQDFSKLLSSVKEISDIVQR
# UniProt P42336, sequence (whole entry, unmodified, looked up): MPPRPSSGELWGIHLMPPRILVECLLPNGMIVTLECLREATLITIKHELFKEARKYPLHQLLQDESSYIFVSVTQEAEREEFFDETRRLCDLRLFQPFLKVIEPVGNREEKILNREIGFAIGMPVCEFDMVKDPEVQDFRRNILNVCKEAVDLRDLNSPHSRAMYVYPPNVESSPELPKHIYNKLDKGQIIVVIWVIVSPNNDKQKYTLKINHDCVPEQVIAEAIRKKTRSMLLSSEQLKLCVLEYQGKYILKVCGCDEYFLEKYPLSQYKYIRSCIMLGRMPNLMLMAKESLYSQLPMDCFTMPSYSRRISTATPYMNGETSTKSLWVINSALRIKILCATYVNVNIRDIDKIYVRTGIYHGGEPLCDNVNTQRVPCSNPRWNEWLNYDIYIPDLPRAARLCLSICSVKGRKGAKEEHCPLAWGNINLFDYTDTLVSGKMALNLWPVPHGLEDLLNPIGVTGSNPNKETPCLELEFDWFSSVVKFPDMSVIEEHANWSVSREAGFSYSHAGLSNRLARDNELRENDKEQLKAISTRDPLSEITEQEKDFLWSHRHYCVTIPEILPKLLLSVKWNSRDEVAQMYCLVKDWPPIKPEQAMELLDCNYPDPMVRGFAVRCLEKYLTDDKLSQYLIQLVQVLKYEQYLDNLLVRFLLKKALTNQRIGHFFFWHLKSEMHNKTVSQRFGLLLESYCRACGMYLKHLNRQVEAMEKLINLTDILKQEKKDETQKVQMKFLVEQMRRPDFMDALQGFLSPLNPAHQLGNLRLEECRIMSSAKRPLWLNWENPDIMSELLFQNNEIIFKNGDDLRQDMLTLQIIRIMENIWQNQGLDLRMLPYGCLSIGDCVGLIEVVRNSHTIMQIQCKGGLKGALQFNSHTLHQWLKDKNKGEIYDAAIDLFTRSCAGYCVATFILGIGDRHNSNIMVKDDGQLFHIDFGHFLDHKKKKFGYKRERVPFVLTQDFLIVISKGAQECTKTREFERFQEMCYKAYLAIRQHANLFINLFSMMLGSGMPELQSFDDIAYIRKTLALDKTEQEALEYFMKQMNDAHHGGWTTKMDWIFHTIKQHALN

# Study 1
# Cell line: HaCaT
# Tested at: 100 µM
# Time: 60 h
Compound,viability [%]
COc1cc2c(cc1OC)[C@H]1CC(=O)[C@H](CC(C)C)CN1CC2 (racemic),83.2
C/C=C1\[C@H]2C=C(C)C[C@]1(N)c1ccc(=O)[nH]c1C2,143
CN[C@@H]1[C@@H](O[C@H]2O[C@H](CO)[C@@H](N)[C@H](O)[C@H]2O)O[C@H]2C[C@@H](N)[C@@H](O[C@H]3[C@H](O)[C@@H](O)[C@H](N)C[C@@H]3N)O[C@@H]2[C@@H]1O,118
CN(C)CCc1c[nH]c2ccc(Cn3cncn3)cc12,120
CCCCNC(=O)NS(=O)(=O)c1ccc(C)cc1,122
Cc1cn([C@H]2O[C@@H](CO)[C@H](O)[C@H]2F)c(=O)[nH]c1=O,116
Cc1c(Cl)cccc1Nc1ccccc1C(=O)O,99.1
O=C1C(CC[S+]([O-])c2ccccc2)C(=O)N(c2ccccc2)N1c1ccccc1 (centres unmarked),137

# Study 2
# Target: Ribosomal protein S6 kinase beta-2 (RPS6KB2, Homo sapiens, UniProt Q9UBS0)
# UniProt Q9UBS0, sequence (whole entry, looked up): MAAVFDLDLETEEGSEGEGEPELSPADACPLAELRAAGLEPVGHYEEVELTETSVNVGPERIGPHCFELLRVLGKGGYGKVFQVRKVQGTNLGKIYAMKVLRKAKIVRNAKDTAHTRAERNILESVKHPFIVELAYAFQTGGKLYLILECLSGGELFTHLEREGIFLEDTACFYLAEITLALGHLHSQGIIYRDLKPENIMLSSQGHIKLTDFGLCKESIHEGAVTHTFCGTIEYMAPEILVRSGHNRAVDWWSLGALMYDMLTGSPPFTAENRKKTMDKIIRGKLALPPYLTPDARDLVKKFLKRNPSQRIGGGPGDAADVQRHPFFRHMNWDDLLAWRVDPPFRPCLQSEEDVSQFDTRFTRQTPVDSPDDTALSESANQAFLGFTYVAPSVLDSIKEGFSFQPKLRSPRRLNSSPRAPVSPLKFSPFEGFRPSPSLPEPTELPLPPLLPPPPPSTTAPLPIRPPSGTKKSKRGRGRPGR
# Read-out: enzyme activity
# Mode: inhibitor
# Tested at: 0.5 µM
# Reference: control
Compound,remaining activity
COc1cc2c(Nc3ccc(Br)cc3F)ncnc2cc1OCC1CCN(C)CC1,101%
CNc1cc2c(Nc3cccc(Br)c3)ncnc2cn1,99.8%
CCCCc1c(-c2ccc(O)cc2)[nH]c2nccnc12,102%
O=C(c1ccccc1)c1ccc(N2CCOCC2)cc1O,100%
c1cc(-c2cnn3cc(-c4ccc(OCCN5CCCCC5)cc4)cnc23)ccn1,94.9%
Clc1ccc(Nc2nnc(Cc3ccncc3)c3ccccc23)cc1,101%
N#CC(c1ccnc(NCCc2cccnc2)n1)c1nc2ccccc2s1 (centres unmarked),96.5%
O=Nc1c(-c2c(O)[nH]c3ccccc23)[nH]c2ccccc12,107%
C[C@@H](N)[C@H]1CC[C@H](C(=O)Nc2ccncc2)CC1,93.5%

# Study 3
# Compound: Cc1ccc(NC(=O)c2ccnc(C(F)(F)F)c2)cc1-c1cc(OCCO)nc(N2CCOCC2)c1
# Read-out: binding
# Tested at: 1 µM
target,assay,remaining binding
"Ribosomal protein S6 kinase alpha-4, N-terminal kinase domain (RPS6KA4, Homo sapiens, UniProt O75676)",competition with immobilised ligand,100%
"MAPK15 (Homo sapiens, UniProt Q8TD08)",competition with immobilised ligand,86%
"BMPR1A (Homo sapiens, UniProt P36894)",competition with immobilised ligand,88%
"BRSK2 (Homo sapiens, UniProt Q8IWQ3)",,100%
"MAP4K1 (Homo sapiens, UniProt Q92918)",competition with immobilised ligand,83%
"ABL1 (Homo sapiens, UniProt P00519, H396P)",,100%
"PIK3CA (Homo sapiens, UniProt P42336, E545K)",,73%
"EGFR (Homo sapiens, UniProt P00533, L858R)",,78%

# Other studies, line by line
Structure (SMILES),target,assay,conditions,scale,measurement,result
"COc1ccc2c(c1)O[C@H](c1ccc(OC)c(OC)c1)C[C@@H]2NC(=O)C1(c2ccc3c(c2)OC(F)(F)O3)CC1 (single isomer, unassigned)","AP2-associated protein kinase 1 (AAK1, Homo sapiens, UniProt Q2M2I8)",KINOMEscan,1 µM,reference: control,remaining binding,91%

# Some of these lines once more (study 3):
target,assay,remaining binding
"MAP4K1 (Homo sapiens, UniProt Q92918)",competition with immobilised ligand,83%
"ABL1 (Homo sapiens, UniProt P00519, H396P)",,100%
